Measured values pooled from the literature.
Compare with care: the assays were run in different laboratories. Values joined by “and” are separate records of one study, mostly repeats; a detail may differ. Numbers after ± are the reported error.
HTR2C: 5-hydroxytryptamine receptor 2C (HTR2C, Homo sapiens, UniProt P28335)
Oprk1: Kappa-type opioid receptor (Oprk1, Mus musculus, UniProt P33534)
SLC6A4: Sodium-dependent serotonin transporter (SLC6A4, Homo sapiens, UniProt P31645)
ribH: 6,7-dimethyl-8-ribityllumazine synthase (ribH, Mycobacterium tuberculosis, UniProt P9WHE9)

`COc1cc(CCNCc2ccccc2OC)c(OC)cc1C` gave a Ki of 0.00069 µM (HTR2C; ligand displacement, radioligand).
With `N#Cc1cc(C(=O)N[C@@H]2CC[C@@]3(O)[C@H]4Cc5cccc6c5[C@@]3(CCN4CC3CC3)[C@H]2O6)ccn1` the Ki was 0.00613 µM (Oprk1; ligand displacement, radioligand; cell membranes).
The Ki of `CNC(C)Cc1ccc2c(c1)OCO2` (stereo not shown) is reported as 17.5 µM (SLC6A4; ligand displacement, radioligand; cell membranes).
`CCCOP(=O)(O)C(C)=O` gave a Ki of 62 ± 8 µM (Pyruvate dehydrogenase E1 (Sus scrofa, UniProt F1SGH5+P29804); enzyme activity, inhibitor, NADH formation).
`CCCC(C(=O)c1ccc2c(c1)OCO2)N(C)C` (stereo not shown) gave a Ki of 2.27 µM (SLC6A4; ligand displacement, radioligand; cell membranes).
`Cc1cc(C(=O)N[C@@H]2CC[C@@]3(O)[C@H]4Cc5cccc6c5[C@@]3(CCN4CC3CC3)[C@H]2O6)ccn1` has a Ki of 0.0961 µM (Oprk1; ligand displacement, radioligand; cell membranes).
`CCCNC(C)C(=O)c1ccc2c(c1)OCO2` (stereo not shown) gave a Ki of 13.3 µM (SLC6A4; ligand displacement, radioligand; cell membranes).
With `COc1cc(C(=O)N[C@@H]2CC[C@@]3(O)[C@H]4Cc5cccc6c5[C@@]3(CCN4CC3CC3)[C@H]2O6)ccn1` the Ki was 0.0869 µM (Oprk1; ligand displacement, radioligand; cell membranes).
With `O=C(c1cccc2ccccc12)c1cn(CCCCCF)c2ccccc12` the Ki was 3.29 µM (Translocator protein (Tspo, Rattus norvegicus, UniProt P16257); binding).
`O=C(N[C@@H]1CC[C@@]2(O)[C@H]3Cc4cccc5c4[C@@]2(CCN3CC2CC2)[C@H]1O5)c1ccnc(Br)c1` gave a Ki of 0.00744 µM (Oprk1; ligand displacement, radioligand; cell membranes).
`COc1cc(CCNCc2ccccc2O)c(OC)cc1I` has a Ki of 0.00103 µM and ~0.001 µM (HTR2C; ligand displacement, radioligand).
`Fc1ncccc1OC[C@@H]1C=CCN1` has a Ki of 0.00107 µM (Neuronal acetylcholine receptor; alpha4/beta2 (Rattus norvegicus, UniProt P09483+P12390); radioligand binding; rat brain cortex; added: [3H]epibatidine).
`CCC(=O)Nc1c(OC[C@H](O)[C@H](O)[C@H](O)CO)[nH]c(=O)[nH]c1=O` has a Ki of greater than 1000 µM (ribH; inhibitor; pH 7.0, added: substrate 1 varied, other substrate 2 constant).
`O=C(N[C@@H]1CC[C@@]2(O)[C@H]3Cc4cccc5c4[C@@]2(CCN3CC2CC2)[C@H]1O5)c1ccnc(Cl)c1` gave a Ki of 0.0105 µM (Oprk1; ligand displacement, radioligand; cell membranes).
For `O=c1[nH]c(/C=C/c2cccnc2)c([N+](=O)[O-])c(=O)[nH]1`, the Ki was 26 ± 11 µM (ribH; enzyme activity, inhibitor; pH 7.0).
`NC(=O)c1cccnc1` has a Ki of greater than 10000 µM (Halyomorpha halys Nan-Iav Y325A; [3H]-AP competition binding).
